Results from different studies.
Every numbered part comes from another study and shows a few of its results, in no order.

Study 1
Target: Histone acetyltransferase KAT6A, both winged helices, GST fusion (KAT6A, Homo sapiens, UniProt Q92794, residues 1-181)
Technique: protein binding microarray
Molecule type: double-stranded DNA, one strand shown
Sample: in vitro
Concentration: not given
Notes: 8-mer, flanks averaged, mean of 2 arrays, mostly near background
Relative to: not given
Reading: higher = stronger binding
Target sequence (chain): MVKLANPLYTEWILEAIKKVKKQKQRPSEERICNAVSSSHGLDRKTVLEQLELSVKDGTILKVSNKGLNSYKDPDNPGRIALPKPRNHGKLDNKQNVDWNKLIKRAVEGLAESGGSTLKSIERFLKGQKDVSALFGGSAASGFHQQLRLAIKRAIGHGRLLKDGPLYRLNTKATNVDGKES
Sequence	E-score
CTACAAAC	-0.0941
GCTACCCC	-0.0694
AGTGCGGA	0.199
GTACCGAA	-0.042
GACGCATC	0.151
AACTAAGC	-0.0688
CAACCAAG	-0.141
CATACTGC	-0.0039
CGGCTGTA	0.201
GTCTAGAC	0.0455
CTATCCTA	-0.175

Study 2
Target: Sal-like protein 4, full length isoform A (SALL4, Homo sapiens, UniProt Q9UJQ4, residues 1-1053)
Chain of UniProt Q9UJQ4 (whole entry, looked up): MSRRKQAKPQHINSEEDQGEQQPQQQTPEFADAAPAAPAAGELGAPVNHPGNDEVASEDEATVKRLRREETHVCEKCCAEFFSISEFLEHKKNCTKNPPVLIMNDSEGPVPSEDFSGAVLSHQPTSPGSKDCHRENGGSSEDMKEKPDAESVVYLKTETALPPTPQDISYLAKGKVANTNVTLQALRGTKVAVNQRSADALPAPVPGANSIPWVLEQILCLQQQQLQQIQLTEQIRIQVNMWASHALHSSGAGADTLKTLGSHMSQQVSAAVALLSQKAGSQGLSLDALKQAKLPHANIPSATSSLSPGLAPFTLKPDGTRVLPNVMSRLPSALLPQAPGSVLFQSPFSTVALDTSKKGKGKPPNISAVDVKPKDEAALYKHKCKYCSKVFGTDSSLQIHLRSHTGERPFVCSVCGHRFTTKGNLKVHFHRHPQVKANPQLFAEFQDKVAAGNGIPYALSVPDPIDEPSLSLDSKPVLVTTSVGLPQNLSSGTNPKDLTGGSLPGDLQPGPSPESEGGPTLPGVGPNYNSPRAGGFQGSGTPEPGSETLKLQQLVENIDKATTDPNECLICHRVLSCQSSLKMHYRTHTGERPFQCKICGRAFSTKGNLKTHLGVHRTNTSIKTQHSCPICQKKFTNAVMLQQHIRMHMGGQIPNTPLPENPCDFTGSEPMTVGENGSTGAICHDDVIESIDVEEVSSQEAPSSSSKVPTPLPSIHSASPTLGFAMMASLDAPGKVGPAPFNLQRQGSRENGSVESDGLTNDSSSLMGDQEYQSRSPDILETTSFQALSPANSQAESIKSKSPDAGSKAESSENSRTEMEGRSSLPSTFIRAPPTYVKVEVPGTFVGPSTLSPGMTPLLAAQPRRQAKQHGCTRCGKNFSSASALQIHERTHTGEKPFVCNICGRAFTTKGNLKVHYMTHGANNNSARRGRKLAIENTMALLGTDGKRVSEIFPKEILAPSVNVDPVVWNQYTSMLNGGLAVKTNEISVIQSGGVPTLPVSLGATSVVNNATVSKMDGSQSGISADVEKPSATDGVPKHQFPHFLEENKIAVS
Technique: universal PBM
Molecule type: double-stranded DNA, one strand shown
Sample: in vitro
Concentration: 600 nM
Notes: 8-mer, flanks averaged, mean of replicates
Reading: higher = stronger binding
Sequence	E-score
GAACCTAA	-0.0814
ATCACAAT	0.238
AGGGAGTA	0.0176
GATACGAC	0.0435
AGACAGCG	-0.176
GCTAGTCC	-0.163
CAGACACG	-0.263
AACTTACG	0.127
GAACATGC	-0.0568

Study 3
Target: Interferon regulatory factor 7, full length, phosphomimetic (IRF7, Homo sapiens, UniProt Q92985, residues 1-503, S101K/S471D/S472D/S475D/S476D/S477D/S483D/S484D/S487D)
Technique: protein-binding microarray
Molecule type: double-stranded DNA, one strand shown
Sample: in vitro
Concentration: 250 nM
Notes: 60-bp whole probe
With: salmon DNA 0.4 mg/ml
Relative to: random background probes
Reading: higher = stronger binding
All sequences stand within: GCCTAGCAC … GTCTTGATTCGCTTGACGCTGCTG
Target sequence (chain): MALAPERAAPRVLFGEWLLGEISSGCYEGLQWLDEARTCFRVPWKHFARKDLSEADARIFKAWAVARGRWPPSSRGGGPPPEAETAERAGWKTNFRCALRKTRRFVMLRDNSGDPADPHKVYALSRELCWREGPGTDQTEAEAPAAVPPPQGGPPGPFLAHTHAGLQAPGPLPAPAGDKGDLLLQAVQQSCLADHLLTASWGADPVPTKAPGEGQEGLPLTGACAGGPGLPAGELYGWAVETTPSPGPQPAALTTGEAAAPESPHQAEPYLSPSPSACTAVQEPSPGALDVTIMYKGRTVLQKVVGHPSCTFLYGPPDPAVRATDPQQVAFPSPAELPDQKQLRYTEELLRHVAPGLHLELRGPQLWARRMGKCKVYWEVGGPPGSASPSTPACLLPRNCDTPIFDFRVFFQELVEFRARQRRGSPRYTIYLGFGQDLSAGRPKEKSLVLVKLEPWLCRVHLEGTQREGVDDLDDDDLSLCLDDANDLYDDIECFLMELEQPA
Sequence	log fluorescence [z-score]
CTGTGTACATCTCTCTTAAAGTGCTAG	-0.0781
TTAGGTAGCGGTATCGGTTAGTGCTAG	0.452
ATATATATTCATATATATATGTGCTAG	1.14
GACTAACTGGGGTATCGAGACGTGCTA	-0.148
TCATCTTCCCCTCTCATACTGTGCTAG	1.29
GACGGACTGGGTCTCAGGACGTGCTAG	-0.531
TTGGATCTCAGACTGGATTAGTGCTAG	-0.0848
TCAAATTAGTGTTTCCCACTGTGCTAG	0.852
GACGAGCTCAGTCTCGAGACGTGCTAG	0.2
CCCAGGGTCTGTTTGGGTCTGTGCTAG	-0.35
GACGATGTCAGTTCCGAGACGTGCTAG	-0.14

Other studies, line by line
Substance	target	test	system	setting	scale	endpoint	value
PhoQ, residues 284 288 289 292 302 303 NLCILV	PhoP, residues 12 14 15 18 19 GHCSL (Escherichia coli, UniProt P23836)	Sort-seq, item: YFP reporter	E. coli	PhoQ-PhoP variant library, with: 10 µM Mg2+	relative to: high Mg2+ state, higher = stronger signaling	fold induction	20.7

Excerpt of the above (study 3):
Sequence	log fluorescence [z-score]
TTAGGTAGCGGTATCGGTTAGTGCTAG	0.452
ATATATATTCATATATATATGTGCTAG	1.14
GACTAACTGGGGTATCGAGACGTGCTA	-0.148
TCATCTTCCCCTCTCATACTGTGCTAG	1.29
